# Assay results of several laboratories.
# Numbered parts are unrelated; each lists some results of a single study.

# Set 1
# Target: Histone acetyltransferase KAT6A, both winged helices, GST fusion (KAT6A, Homo sapiens, UniProt Q92794, residues 1-181)
# Method: protein binding microarray
# Form: double-stranded DNA, one strand shown
# Matrix: in vitro
# Tested at: not given
# Setting: 8-mer, flanks averaged, mean of 2 arrays, mostly near background
# Relative to: not given
# Direction: higher = stronger binding
# Target sequence (chain): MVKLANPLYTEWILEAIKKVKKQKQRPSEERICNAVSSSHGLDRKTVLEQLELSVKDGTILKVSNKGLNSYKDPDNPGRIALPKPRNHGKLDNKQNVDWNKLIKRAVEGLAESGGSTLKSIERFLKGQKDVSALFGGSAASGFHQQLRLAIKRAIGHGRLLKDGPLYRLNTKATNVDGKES
Oligonucleotide,E-score
CTTCTGCA,0.014
AGAAAACG,0.0698
ATGCGTTG,0.138
AATAATAG,-0.188
AGCCTCAA,-0.163
GCTTACAA,-0.0581

# Set 2
# Target: PABPC1L2, full length, GST fusion (mouse, UniProt A0ABA7IW68)
# Method: RNAcompete
# Form: RNA
# Matrix: in vitro
# Tested at: 20 nM
# Setting: 7-mer, probes averaged, single round
# Relative to: mean of 7-mers
# Direction: higher = stronger binding
# Target sequence (chain): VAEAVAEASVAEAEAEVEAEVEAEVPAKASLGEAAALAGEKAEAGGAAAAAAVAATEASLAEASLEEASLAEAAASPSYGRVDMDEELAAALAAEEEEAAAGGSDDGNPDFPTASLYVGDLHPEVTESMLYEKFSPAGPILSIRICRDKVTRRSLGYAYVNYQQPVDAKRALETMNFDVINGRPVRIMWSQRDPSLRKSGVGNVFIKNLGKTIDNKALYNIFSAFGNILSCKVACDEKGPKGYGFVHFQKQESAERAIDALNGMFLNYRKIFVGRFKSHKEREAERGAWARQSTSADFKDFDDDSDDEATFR
Oligonucleotide,7-mer Z-score
UAAAUCC,0.138
ACGGCUG,0.095
ACACGGU,-0.0047
UAUGAUG,0.0605
GCGAUUG,0.00436
CCUAACU,-0.273
UUUCUCC,-0.347
AUAAUCU,-0.0373
UCUCUCA,-0.32

# Set 3
# Target: Interferon regulatory factor 5, full length, phosphomimetic (IRF5, Homo sapiens, UniProt Q13568-2, residues 1-514, S451D/S453D/S456D/S462D)
# Method: protein-binding microarray
# Form: double-stranded DNA, one strand shown
# Matrix: in vitro
# Tested at: 940 nM top
# Setting: 60-bp whole probe
# With: salmon DNA 0.4 mg/ml
# Relative to: random background probes
# Direction: higher = stronger binding
# All sequences stand within: GCCTAGCAC … GTCTTGATTCGCTTGACGCTGCTG
Oligonucleotide,fitted relative affinity
GGCGGTCTCGGTATCGGGACGTGCTAG,5.59 z-score
GACGGCTTCCTACTGCTGACGTGCTAG,-0.352 z-score
GACGGTATCCTTAACCTGACGTGCTAG,0.43 z-score
GTATATATGTGTATATATAAGTGCTAG,0.515 z-score
TTAGGACTGCTTTTCATTTAGTGCTAG,0.00564 z-score
TTAGGTTTCCACTATCGGTTAGTGCTA,1.71 z-score
TTAGGACTGCTGCTCCTTTAGTGCTAG,-0.393 z-score

# Single results of other studies
Substance,target,test,system,conditions,scale,endpoint,result
"PhoQ, residues 284 288 289 292 302 303 ALVSVA","PhoP, residues 12 14 15 18 19 TPLRH (Escherichia coli, UniProt P23836)","Sort-seq, measured: YFP reporter",E. coli,"PhoQ-PhoP variant library, with: 10 µM Mg2+","relative to: high Mg2+ state, higher = stronger signaling",fold induction,0.906

# Some of these lines once more (set 2):
Oligonucleotide,7-mer Z-score
CCUAACU,-0.273
